# Results pooled from the literature.
# Each numbered part is a random draw from the data of one study; scales do not carry over between parts. Changes are numbered by the printed parent chain.

# Series 1 — method: universal PBM; form: double-stranded DNA, one strand shown; sample: in vitro; tested at: not given; direction: higher = stronger binding
# Target: Sal-like protein 4, full length isoform B (SALL4, Homo sapiens, UniProt Q9UJQ4-2, residues 1-616)
# Notes: 8-mer, flanks averaged, mean of replicates
# Construct (chain): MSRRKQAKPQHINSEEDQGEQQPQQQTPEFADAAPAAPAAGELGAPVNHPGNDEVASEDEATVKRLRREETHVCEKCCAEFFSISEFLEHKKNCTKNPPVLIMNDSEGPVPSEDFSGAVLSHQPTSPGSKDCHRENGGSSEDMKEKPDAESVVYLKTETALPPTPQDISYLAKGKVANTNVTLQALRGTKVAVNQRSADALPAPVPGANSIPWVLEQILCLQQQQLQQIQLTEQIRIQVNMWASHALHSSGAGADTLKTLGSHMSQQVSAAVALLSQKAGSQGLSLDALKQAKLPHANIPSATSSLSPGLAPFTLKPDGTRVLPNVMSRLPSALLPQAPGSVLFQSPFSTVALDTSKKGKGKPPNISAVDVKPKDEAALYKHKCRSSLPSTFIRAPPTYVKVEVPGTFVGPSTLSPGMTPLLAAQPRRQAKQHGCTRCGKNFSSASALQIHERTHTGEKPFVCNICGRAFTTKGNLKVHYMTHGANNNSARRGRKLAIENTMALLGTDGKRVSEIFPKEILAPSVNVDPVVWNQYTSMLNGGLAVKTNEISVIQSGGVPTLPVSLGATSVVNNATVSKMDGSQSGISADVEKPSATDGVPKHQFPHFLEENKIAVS
Sequence,E-score
AAATTGGA,0.246
ACGCTTCG,-0.131
CGACTCAG,-0.182
GAGGAACC,-0.0723
AGAAAATC,0.114
GGGGGCAA,-0.128
AGGGCCAC,-0.289
GGCCCTAC,-0.308
GGCATTAA,0.0474
GAAAACCC,-0.0161
CACTGGAA,-0.0895
GAGAAACC,-0.0636
ACGACAGT,-0.0109
AGGCATAG,-0.0785
GCTCTAAA,-0.0979
TCCGAACA,0.0497
CACTTAAA,0.196
CATCTCTA,0.086
CAAATGGC,-0.0347
CTCTGACC,-0.312
AGTATGTG,0.192
CTCGGAGA,-0.219
ACCAAACT,0.0393
TAAAGACA,0.163
CCTTGGAG,-0.0415

# Series 2 — method: RNA Bind-n-Seq; form: RNA; sample: in vitro; tested at: 1 µM; notes: whole 134-nt RNA, ends assumed; together with: 150 mM KCl; reference: input library; direction: higher = stronger binding
# Target: Ras GTPase-activating protein-binding protein 1, C-terminal RGG region (G3BP1, Homo sapiens, UniProt Q13283)
# Chain of UniProt Q13283 (whole entry, looked up): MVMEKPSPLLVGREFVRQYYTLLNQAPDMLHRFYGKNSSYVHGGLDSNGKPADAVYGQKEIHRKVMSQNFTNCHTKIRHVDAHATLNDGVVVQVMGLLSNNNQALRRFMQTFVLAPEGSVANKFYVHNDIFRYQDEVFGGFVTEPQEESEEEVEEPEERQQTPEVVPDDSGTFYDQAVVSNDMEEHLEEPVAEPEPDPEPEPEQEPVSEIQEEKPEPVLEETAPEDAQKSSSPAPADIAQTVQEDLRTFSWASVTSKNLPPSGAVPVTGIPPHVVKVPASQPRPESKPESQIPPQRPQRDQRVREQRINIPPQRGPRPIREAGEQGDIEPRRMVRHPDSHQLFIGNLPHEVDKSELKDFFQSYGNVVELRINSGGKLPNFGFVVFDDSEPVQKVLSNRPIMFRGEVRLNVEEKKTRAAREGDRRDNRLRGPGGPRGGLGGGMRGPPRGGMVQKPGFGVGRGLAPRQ
Sequence,log2 enrichment
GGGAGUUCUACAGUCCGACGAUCUGCCUACGUAAUUUUUUAUCUUGAAAUAUUCAAAAUUAGGAGCCAGAUGACCAAGAUGCUCCAGAUGAACAUGAGUCGCCUCCACCUGAAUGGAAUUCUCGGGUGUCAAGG,-1.17
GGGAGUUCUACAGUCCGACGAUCAGUAGCUAUGGUCAACAAAGCAGCUAUGGGCAGCAGCCUCCCACUAGUUACCCACCCCAAACUGGAUCCUACAGCCAAGCUCCAAGUCAAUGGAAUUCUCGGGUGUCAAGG,-0.224
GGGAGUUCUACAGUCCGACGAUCAGUCCUGUGCUACACAUCGUAUGUACCGAAUCGGGAAAGGGUUUUUUUGGGAAAGGGAAAGUAUUAUGUUACGCCGUUCGGAUCUGCACUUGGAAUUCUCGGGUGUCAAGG,-0.022
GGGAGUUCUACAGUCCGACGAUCUCCUGUGCUACACAUCGUAUGUACCGAAUCGGGCCCCCCGGGCCCCCCGGCCCCCCGGGGAAAGUAUUAUGUUACGCCGUUCGGAUCUGCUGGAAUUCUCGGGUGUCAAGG,-1.02
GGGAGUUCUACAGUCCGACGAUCCAAGUCCUGUGCUACACAUCGUAUGUACCGAAUCGGGAAAGGGGAAAGGGGAAAGGAAAGUAUUAUGUUACGCCGUUCGGAUCUGCACUUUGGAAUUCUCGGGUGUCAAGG,-1.24
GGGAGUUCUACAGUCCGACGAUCCCUCAAGUCCUGUGCUACACAUCGUAUGUACCGAAUCGGAGGGAGGGAGGGGAAAGUAUUAUGUUACGCCGUUCGGAUCUGCACUUCCAGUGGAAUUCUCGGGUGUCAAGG,0.542
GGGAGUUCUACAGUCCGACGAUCGCAGGAAGUAAAAACAAAUGGAAAUGCUUCGGAUAGUGGCAGGGGUGGGGGUUGCUAAGGAAGGGGUGGGAUGGGAGUGGGUAAAGAGUUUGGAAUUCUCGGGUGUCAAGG,1.68
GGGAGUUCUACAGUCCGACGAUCCAAGUCCUGUGCUACACAUCGUAUGUACCGAAUCGGGGAGGGGUUUGGGGUGGGGAAAGUAUUAUGUUACGCCGUUCGGAUCUGCACUUCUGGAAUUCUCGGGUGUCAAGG,2.93
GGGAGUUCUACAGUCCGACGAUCACCAUGCAGGUGGGCAUCUUUGGGAAGUGGGGCAAGGGGGGGAUAGGGAGGGGGGUAACACUUUGGGAACAGGUGGUCCCAGGUCGUCUCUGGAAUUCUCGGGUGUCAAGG,1.67

# Series 3 — target: CCNE1, cyclin fold, Cln2 fusion (human); method: yeast growth competition, sequencing; sample: yeast; notes: weak parent motif; reference: not given; direction: higher = stronger binding
# Parent: CENPC docking peptide (human); VKTKKRLNFDDKV
Change,normalised enrichment score
VKTKKRLNFADKV [D10A],0.617
AKTKKRLNFDDKV [V1A],0.549
VKTKKRANFDDKV [L7A],0.325
VKTKRRLNLDDKV [K5R F9L],0.469
VKTKARANFDDKV [K5A L7A],0.0583
VKTKKRLNLDDKV [F9L],-0.0585
VKTKKRLNADDKV [F9A],0.376
VKAKKRLNFDDKV [T3A],3.21
VKTKKRLNFDDAV [K12A],1.64
VATKKRLNFDDKV [K2A],0.653

# Series 4 — method: RNA Bind-n-Seq; form: RNA; sample: in vitro; tested at: 365 nM; reference: no-protein control; direction: higher = stronger binding
# Target: RNA binding protein fox-1 homolog 2, RRM domain, GST-SBP tag (RBFOX2, Homo sapiens, UniProt O43251-10, residues 100-194)
# Notes: natural RNA segment, single round, ends assumed
Sequence,RBNS enrichment (R)
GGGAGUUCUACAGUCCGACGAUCACACAAUUGUUCAUUGUGGUUUGUAUCCCAGAAUGUGUUGUGUUUUUUAAAAGAUGCAUAAUAGCUGAAUGUAUGCAUGACUUUGAAAGAAGUUAAAAUGGUGAUUUUUUUGGAAUUCUCGGGUGCCAA,5.92
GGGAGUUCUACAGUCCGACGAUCUGACCUUCAAGAAAAUGGAAAUAUUUGUAAAUUCUUGGUAAUGCCUCCGUUGUAAUUAAUGAAACUAUUUUCUUUAAAGUGUUUCUAUGUUAAAAUAGCAUACUGUGUAUUGGAAUUCUCGGGUGCCAA,0.552
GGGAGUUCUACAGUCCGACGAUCGCAAAAGGAGAAAGAUAAAAUACAGAAGACUGGCCCCAGAGAGACCUCAGAUCAGUAUUGUGCAUUGUAGUCUACCUGCAUGUGAUCUAUGUUGACAUUUCGGGGAUAUUUGGAAUUCUCGGGUGCCAA,1.23
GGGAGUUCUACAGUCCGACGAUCAACGAGAAGUGCCCUUAAGGAUCACCCCAGCCCCCACAGCCCUGGAAUAAAUUUCGCAAUUAGUUUCAGCUACCUUUGCCUGUGUACGUUCUGGGGCCAAAGCAGAACGGUGGAAUUCUCGGGUGCCAA,0.361
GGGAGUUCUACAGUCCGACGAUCGCAGAUGCACAUGUUGGAGGAGAGAGCCUUGGGAGCCACUGCCACUCCAGUCCUGCCACCACCCUGUCUUCCUCUGCAAGUGCUCAGGGAAAUGGCCUUCCCGCCGGAGGUGGAAUUCUCGGGUGCCAA,0.431
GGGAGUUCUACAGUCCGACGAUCGAUACCCAUUUCACCCCAGCGUCUAUAGGAAUCCACACGGGAAUGGUUCAGAGUUAGCAGCUGUUUCUAAGGAAAUGCUGUUCAGAUGCCUCCUAACUUUUAUAGUUAUUUGGAAUUCUCGGGUGCCAA,0.362
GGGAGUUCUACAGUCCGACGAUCCUUCUCUGCAGCCAGUCCUCUAACAAAUCUCAAGAACAAAGGUAAGACACUUGGUUUUUGUUUCCAGGACCCUUCAGAAGGUGACAUCAGAUAUUCCCUAAAUUCAGACAUGGAAUUCUCGGGUGCCAA,0.411
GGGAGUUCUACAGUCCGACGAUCUCCAGCCUGGUGACAGAGCAAGACUCCAUCUCAAAAAAAAUCUAAGCAAACUAUCUUUGAGUCAAAAAAAGUUGGAUAACUCAUCUAUAUUUGAAAUAAUGCUGUCUGAAUGGAAUUCUCGGGUGCCAA,0.646

# Some of these lines once more (series 1):
Sequence,E-score
GAGAAACC,-0.0636
ACGACAGT,-0.0109
AGGCATAG,-0.0785
GCTCTAAA,-0.0979
TCCGAACA,0.0497
CACTTAAA,0.196
CATCTCTA,0.086
